Experimental data gathered from unrelated publications.
Lines come from different studies, so protocols differ. ± marks the error that the study gave.
TNKS2: Poly [ADP-ribose] polymerase tankyrase-2 (TNKS2, Homo sapiens, UniProt Q9H2K2)
Chain of UniProt Q9H2K2 (whole entry, looked up): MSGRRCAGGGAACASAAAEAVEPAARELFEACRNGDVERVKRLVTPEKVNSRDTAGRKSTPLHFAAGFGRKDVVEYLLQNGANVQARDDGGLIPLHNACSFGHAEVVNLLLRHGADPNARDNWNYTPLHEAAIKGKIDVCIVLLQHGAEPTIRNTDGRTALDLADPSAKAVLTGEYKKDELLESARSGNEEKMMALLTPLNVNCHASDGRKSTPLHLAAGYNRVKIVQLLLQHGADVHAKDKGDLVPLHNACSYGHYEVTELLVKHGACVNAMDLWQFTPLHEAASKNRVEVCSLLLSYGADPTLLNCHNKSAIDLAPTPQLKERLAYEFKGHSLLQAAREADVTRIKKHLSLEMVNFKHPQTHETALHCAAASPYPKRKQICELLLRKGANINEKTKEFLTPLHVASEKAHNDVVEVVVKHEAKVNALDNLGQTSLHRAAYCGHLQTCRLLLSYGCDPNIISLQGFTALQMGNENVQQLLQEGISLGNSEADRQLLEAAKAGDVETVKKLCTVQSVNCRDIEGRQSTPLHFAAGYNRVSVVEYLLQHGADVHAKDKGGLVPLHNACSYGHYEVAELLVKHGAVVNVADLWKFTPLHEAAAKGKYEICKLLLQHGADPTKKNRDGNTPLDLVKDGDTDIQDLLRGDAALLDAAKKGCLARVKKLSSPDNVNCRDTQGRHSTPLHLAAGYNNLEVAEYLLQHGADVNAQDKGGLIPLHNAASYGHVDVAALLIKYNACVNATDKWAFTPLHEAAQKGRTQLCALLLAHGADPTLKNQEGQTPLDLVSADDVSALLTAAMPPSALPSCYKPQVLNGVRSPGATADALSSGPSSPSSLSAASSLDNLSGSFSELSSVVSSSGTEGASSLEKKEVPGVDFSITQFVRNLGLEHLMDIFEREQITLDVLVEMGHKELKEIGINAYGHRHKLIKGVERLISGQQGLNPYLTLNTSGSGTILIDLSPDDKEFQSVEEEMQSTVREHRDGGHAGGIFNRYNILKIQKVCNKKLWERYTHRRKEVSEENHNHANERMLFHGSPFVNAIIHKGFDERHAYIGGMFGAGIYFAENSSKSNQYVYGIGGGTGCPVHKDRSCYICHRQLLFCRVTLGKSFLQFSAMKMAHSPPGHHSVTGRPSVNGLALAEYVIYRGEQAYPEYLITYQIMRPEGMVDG
F13A1: Coagulation factor XIII A chain (F13A1, Homo sapiens, UniProt P00488)
Chain of UniProt P00488 (whole entry, looked up): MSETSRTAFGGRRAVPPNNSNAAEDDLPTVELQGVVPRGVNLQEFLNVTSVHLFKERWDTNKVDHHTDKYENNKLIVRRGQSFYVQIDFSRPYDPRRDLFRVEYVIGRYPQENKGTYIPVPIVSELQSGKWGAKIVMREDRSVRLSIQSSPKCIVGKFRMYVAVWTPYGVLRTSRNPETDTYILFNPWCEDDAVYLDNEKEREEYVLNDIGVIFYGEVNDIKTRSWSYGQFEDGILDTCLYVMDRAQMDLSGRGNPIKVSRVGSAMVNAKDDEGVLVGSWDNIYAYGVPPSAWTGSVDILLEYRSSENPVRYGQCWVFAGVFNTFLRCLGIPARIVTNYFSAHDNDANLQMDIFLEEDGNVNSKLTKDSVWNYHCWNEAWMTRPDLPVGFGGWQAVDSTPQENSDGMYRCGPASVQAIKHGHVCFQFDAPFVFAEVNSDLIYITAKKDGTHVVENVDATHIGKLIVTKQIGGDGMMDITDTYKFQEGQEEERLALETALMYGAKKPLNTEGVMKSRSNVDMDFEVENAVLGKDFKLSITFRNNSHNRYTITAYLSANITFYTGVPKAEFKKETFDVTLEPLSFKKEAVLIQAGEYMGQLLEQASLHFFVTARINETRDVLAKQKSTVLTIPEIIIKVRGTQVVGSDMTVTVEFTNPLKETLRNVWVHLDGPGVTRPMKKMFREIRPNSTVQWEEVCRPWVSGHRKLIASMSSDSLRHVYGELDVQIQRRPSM
DRD3: D(3) dopamine receptor (DRD3, Homo sapiens, UniProt P35462)
Chain of UniProt P35462 (whole entry, looked up): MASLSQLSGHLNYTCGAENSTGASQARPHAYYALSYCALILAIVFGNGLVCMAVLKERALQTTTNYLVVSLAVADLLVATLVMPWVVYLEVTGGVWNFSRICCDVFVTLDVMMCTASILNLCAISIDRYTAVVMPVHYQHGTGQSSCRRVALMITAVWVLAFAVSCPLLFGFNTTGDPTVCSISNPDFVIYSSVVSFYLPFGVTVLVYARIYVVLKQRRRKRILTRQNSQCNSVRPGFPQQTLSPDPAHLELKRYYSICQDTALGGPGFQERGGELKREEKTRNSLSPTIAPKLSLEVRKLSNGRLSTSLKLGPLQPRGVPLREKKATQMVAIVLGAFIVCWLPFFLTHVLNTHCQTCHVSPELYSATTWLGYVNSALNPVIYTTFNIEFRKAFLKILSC
Chain of UniProt P06401 (whole entry, looked up): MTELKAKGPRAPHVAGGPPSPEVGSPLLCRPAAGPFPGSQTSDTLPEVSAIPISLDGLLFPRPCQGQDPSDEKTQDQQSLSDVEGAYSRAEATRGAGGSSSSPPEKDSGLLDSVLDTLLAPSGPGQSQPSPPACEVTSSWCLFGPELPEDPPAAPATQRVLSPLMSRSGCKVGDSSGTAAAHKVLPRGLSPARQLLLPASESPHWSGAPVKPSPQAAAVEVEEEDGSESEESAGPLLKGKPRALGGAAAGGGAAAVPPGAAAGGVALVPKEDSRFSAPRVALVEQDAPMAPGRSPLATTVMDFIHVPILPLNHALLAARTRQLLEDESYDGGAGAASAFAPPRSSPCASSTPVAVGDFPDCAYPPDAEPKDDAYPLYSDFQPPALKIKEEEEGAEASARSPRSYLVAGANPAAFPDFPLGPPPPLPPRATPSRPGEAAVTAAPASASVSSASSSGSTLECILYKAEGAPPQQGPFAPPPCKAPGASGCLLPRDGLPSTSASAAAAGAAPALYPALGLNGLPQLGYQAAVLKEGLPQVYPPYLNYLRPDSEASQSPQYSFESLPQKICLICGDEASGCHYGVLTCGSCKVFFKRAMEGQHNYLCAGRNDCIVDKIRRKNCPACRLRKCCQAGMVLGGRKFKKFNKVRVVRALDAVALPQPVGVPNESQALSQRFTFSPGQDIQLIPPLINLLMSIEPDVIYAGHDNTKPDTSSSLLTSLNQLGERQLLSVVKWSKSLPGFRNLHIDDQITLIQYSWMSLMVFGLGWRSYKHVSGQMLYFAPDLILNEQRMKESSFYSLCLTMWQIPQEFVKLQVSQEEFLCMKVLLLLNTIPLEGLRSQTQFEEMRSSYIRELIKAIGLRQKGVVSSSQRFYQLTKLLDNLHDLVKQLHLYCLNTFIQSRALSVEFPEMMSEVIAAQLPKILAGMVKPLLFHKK
Chain of UniProt P51449 (whole entry, looked up): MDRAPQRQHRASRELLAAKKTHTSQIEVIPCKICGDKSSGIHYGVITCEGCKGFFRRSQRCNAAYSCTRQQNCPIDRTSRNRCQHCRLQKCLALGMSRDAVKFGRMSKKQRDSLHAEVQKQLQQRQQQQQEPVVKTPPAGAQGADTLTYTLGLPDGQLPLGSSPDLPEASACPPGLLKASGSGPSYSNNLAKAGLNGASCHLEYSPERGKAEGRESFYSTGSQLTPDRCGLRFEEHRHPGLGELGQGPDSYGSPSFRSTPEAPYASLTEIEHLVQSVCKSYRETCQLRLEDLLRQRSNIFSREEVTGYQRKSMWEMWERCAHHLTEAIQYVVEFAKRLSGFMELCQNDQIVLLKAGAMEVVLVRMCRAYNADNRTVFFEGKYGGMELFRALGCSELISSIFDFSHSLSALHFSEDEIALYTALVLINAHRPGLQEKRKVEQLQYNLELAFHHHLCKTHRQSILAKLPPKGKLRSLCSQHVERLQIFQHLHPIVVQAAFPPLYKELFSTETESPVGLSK
Chain of UniProt P22413 (whole entry, looked up): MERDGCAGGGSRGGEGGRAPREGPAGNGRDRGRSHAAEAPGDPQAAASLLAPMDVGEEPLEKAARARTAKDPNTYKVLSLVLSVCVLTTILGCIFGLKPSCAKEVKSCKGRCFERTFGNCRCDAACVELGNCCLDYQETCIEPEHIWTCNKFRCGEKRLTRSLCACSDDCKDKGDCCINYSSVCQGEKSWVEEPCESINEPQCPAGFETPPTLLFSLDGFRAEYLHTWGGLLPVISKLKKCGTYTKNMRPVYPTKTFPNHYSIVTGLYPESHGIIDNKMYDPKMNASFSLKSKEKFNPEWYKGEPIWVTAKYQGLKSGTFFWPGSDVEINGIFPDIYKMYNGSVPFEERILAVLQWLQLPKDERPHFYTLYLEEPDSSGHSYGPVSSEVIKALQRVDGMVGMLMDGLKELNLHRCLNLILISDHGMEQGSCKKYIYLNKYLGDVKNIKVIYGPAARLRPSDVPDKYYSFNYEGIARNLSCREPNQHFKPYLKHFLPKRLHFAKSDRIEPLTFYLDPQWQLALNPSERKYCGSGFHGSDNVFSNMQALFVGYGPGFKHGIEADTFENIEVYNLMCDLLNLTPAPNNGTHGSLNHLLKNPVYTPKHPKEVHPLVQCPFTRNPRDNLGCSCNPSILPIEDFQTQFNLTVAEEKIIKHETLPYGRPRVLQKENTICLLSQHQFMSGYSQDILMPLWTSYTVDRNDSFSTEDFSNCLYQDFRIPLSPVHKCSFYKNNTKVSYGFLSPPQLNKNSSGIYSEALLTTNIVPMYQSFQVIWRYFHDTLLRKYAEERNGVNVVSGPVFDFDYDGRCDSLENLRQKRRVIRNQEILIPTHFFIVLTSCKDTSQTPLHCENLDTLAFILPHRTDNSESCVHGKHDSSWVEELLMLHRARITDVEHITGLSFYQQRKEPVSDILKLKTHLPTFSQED
Chain of UniProt Q9NWT6 (whole entry, unmodified, looked up): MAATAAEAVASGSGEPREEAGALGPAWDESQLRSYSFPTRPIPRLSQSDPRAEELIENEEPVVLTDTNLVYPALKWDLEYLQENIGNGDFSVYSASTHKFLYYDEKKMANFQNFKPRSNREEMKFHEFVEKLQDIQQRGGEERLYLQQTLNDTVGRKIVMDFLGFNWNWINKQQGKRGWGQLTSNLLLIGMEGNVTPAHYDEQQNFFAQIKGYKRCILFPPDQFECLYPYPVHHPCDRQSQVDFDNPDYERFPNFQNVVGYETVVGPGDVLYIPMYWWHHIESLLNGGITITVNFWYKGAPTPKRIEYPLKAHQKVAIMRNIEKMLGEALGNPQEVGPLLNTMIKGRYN

| Structure (SMILES) | target | assay | test system | conditions | IC50 [µM] |
| --- | --- | --- | --- | --- | --- |
| CNC(=O)[C@@H](NC(=O)[C@H](CC(C)C)[C@H](O)C(=O)NO)C(C)(C)C | Matrix metalloproteinase-9, proteoglycan form (Gallus gallus, UniProt Q9DE15) | enzyme activity, inhibitor, fluorogenic peptide cleavage | – | 1.5 h preincubation, pH 7.5, 25 °C, added: MCA-PLGL-Dpa-AAR-NH2 1.0 µM | 0.01 |
| O=C(NO)c1cncc(OS(=O)(=O)Oc2ccc(C(F)(F)F)cc2)c1 | Histone deacetylase 3, with NCoR2 DAD (HDAC3, Homo sapiens, UniProt O15379) | enzyme activity, inhibitor, fluorogenic | – | added: substrate 20 µM | 4.26 |
| CCCCn1c(=O)c2cc(F)ccc2c2nnn(Cc3ccc(C)cc3)c21 | TNKS2 | inhibitor | – | – | > 10 |
| N#C/C(=C\c1ccc(O)c(O)c1)C(N)=S | F13A1 | enzyme activity, inhibitor, biotin-pentylamine incorporation | – | with DTT | > 20 |
| CCN(CC)C(=O)c1c(C)[nH]c(C)c1S(=O)(=O)Nc1ccc(C(F)(F)F)c(Cl)c1 | DRD3 | Go activation, antagonist, BRET | – | added: dopamine | > 100 |
| CCN(Cc1cnc2nc(N)nc(N)c2n1)c1ccc(C(=O)c2ccccc2)cc1 | Pteridine reductase (PTR1, Trypanosoma brucei brucei, UniProt O76290) | – | – | estimated, tight-binding limit | ≤ 0.0001 |
| Cc1ccc(Cn2nnc3c4cc(C)ccc4c(=O)[nH]c32)cc1 | TNKS2 | ADP-ribosyltransferase activity, inhibitor, NAD+ consumption fluorescence | – | – | 0.0832 |
| Cc1cccc(Nc2ccccc2C(=O)O)c1C | UDP-glucuronosyltransferase 2B4 (UGT2B4, Homo sapiens, UniProt P06133) | enzyme activity, inhibitor | human liver microsomes, 2% BSA | added: canagliflozin below Km | > 100 |
| Cc1ccc(NS(=O)(=O)c2c(C(=O)N3CCC(F)(F)C3)cnn2C)cc1Cl | DRD3 | β-arrestin recruitment, antagonist, PathHunter | – | added: dopamine EC80 | > 100 |
| N#Cc1nc2c(nc1C#N)-c1ccc(Cl)cc1C2=O | Ubiquitin carboxyl-terminal hydrolase 8 (USP8, Homo sapiens, UniProt P40818) | – | – | – | 0.22 |
| CN1CCN(c2ccc(Nc3ncc4cc(C#N)c(=O)n(C5CCCC5)c4n3)cc2)CC1 | Serine/threonine-protein kinase DCLK2 (DCLK2, Homo sapiens, UniProt Q8N568) | – | – | – | 0.333 |
| O=c1[nH]c2c(nnn2Cc2c(F)c(F)c(F)c(F)c2F)c2ccc(F)cc12 | TNKS2 | ADP-ribosyltransferase activity, inhibitor, NAD+ consumption fluorescence | – | – | 0.0661 |
| Cc1[nH]c(C)c(S(=O)(=O)Nc2ccc(N(C)C)c(Cl)c2)c1C(=O)N1CCC(F)(F)C1 | DRD3 | Go activation, antagonist, BRET | – | added: dopamine | > 100 |
| CC(C)C(=O)OCC(=O)[C@@]12O[C@H](C3CCCCC3)O[C@@H]1C[C@H]1[C@@H]3CCC4=CC(=O)C=C[C@]4(C)[C@H]3[C@@H](O)C[C@@]12C | Nuclear receptor ROR-gamma, RORγt ligand-binding domain (RORC, Homo sapiens, UniProt P51449) | co-activator peptide binding, inhibitor, HTRF | – | 2 h, RORγt LBD 100 nM, added: SRC1-2 peptide 100 nM | 0.44 ± 0.04 |
| O=C(O)CC(=O)C(=O)O | Hypoxia-inducible factor 1-alpha inhibitor (HIF1AN, Homo sapiens, UniProt Q9NWT6, E105A) | enzyme activity, inhibitor | – | pH 7 | > 1000 |
| O=C(N/N=C/c1cc2c(s1)CCCC2)c1cccs1 | 1-deoxy-D-xylulose-5-phosphate synthase (dxs, Deinococcus radiodurans, UniProt Q9RUB5) | inhibitor | – | estimated | 105 ± 9.3 |
| COc1cccc2c(N3CCC(CCP(=O)(O)O)CC3)ncnc12 | Ectonucleotide pyrophosphatase/phosphodiesterase family member 1 (ENPP1, Homo sapiens, UniProt P22413) | cGAMP hydrolysis, inhibitor | – | overnight, added: cGAMP 2 µM | 0.0006 |
| Cc1[nH]c(C)c(S(=O)(=O)Nc2ccc(C(F)(F)F)c3cccnc23)c1C(=O)N1CCC(F)(F)C1 | DRD3 | Go activation, antagonist, BRET | – | added: dopamine | > 100 |
| Cc1nn(-c2nc3ccccc3s2)c(O)c1C(c1ccccc1C(=O)O)c1c(C)nn(-c2nc3ccccc3s2)c1O | Cyclic GMP-AMP synthase (CGAS, Homo sapiens, UniProt Q8N884) | enzyme activity, pyrophosphatase-coupled | – | mean of 3 experiments | 6.07 |
| CCCCCn1nnc2c3ccccc3c(=O)[nH]c21 | TNKS2 | inhibitor | – | – | 0.263 |
| CNC(=O)CCOCCC(=O)N1CC2CCC(C1)C2NCc1cc(-c2cc(O)ccc2OC(F)(F)F)ccc1F (centres unmarked) | Estrogen receptor (ESR1, Homo sapiens, UniProt P03372, D538G) | – | – | – | ~1 |
| Cc1[nH]c(C)c(S(=O)(=O)Nc2ccc(C(F)(F)F)c(Cl)c2)c1C(=O)N1CC2(CCC2)C1 | DRD3 | β-arrestin recruitment, antagonist, PathHunter | – | added: dopamine EC80 | > 100 |
| O=C1C(SCCO)=C(SCCO)C(=O)c2ccccc21 | F13A1 | crosslinking activity | – | added: DTT | > 50 |
| CNC(=O)c1c(C)[nH]c(C)c1S(=O)(=O)Nc1ccc(C(F)(F)F)c(Cl)c1 | DRD3 | Go activation, antagonist, BRET | – | added: dopamine | > 100 |
| CC[C@@H]1[C@H](F)C(=O)N[C@@H]1COc1nccc2cc(C(N)=O)c(OC)cc12 | Cyclin-dependent kinase 2 (CDK2, Homo sapiens, UniProt P24941) | ATP probe binding, KiNativ profiling, item: Lys1 probe site | THP-1 cell lysate | – | > 5 |
| Cc1ccc(NS(=O)(=O)c2c(C)[nH]c(C)c2C(=O)N2CCC(F)(F)C2)cn1 | DRD3 | Go activation, antagonist, BRET | – | added: dopamine | > 100 |
| C[C@]12CC[C@@H]3c4ccc(O)cc4C[C@@H](CCCCCCCCC[S+]([O-])CCCC(F)(F)C(F)(F)F)[C@H]3[C@@H]1CC[C@@H]2O (some centres unmarked) | Progesterone receptor (PGR, Homo sapiens, UniProt P06401) | PR receptor activity, antagonist, cell-based | – | – | 0.284 |
| Cc1ccc(NS(=O)(=O)c2c(C)[nH]c(C)c2C(=O)N2CC(F)(F)C(F)(F)C2)cc1Cl | DRD3 | Go activation, antagonist, BRET | – | added: dopamine | > 100 |
| Cc1ccc(Cn2cc(-c3ccccc3C(N)=O)nn2)cc1 | TNKS2 | inhibitor | – | – | > 10 |

Some of these lines once more:
| Structure (SMILES) | target | assay | test system | conditions | IC50 [µM] |
| --- | --- | --- | --- | --- | --- |
| COc1cccc2c(N3CCC(CCP(=O)(O)O)CC3)ncnc12 | Ectonucleotide pyrophosphatase/phosphodiesterase family member 1 (ENPP1, Homo sapiens, UniProt P22413) | cGAMP hydrolysis, inhibitor | – | overnight, added: cGAMP 2 µM | 0.0006 |
| Cc1[nH]c(C)c(S(=O)(=O)Nc2ccc(C(F)(F)F)c3cccnc23)c1C(=O)N1CCC(F)(F)C1 | DRD3 | Go activation, antagonist, BRET | – | added: dopamine | > 100 |
| Cc1nn(-c2nc3ccccc3s2)c(O)c1C(c1ccccc1C(=O)O)c1c(C)nn(-c2nc3ccccc3s2)c1O | Cyclic GMP-AMP synthase (CGAS, Homo sapiens, UniProt Q8N884) | enzyme activity, pyrophosphatase-coupled | – | mean of 3 experiments | 6.07 |
| CCCCCn1nnc2c3ccccc3c(=O)[nH]c21 | TNKS2 | inhibitor | – | – | 0.263 |
